# Results collected from several papers.
# ± gives the spread as reported.
# Chain of UniProt P47872 (whole entry, looked up): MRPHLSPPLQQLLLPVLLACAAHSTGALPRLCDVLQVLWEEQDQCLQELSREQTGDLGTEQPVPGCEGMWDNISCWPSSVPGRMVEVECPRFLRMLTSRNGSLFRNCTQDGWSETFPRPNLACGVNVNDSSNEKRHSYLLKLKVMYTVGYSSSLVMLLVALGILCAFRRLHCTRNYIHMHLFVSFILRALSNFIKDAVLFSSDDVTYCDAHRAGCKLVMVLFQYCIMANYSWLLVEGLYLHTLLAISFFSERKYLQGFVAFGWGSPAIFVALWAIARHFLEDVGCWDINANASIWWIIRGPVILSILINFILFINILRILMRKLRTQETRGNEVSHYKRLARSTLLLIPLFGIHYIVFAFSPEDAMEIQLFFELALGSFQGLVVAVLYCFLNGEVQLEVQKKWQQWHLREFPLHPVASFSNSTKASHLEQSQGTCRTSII
SMILES,tested on,assay,test system,conditions,scale,quantity,value
COc1ccc(-c2cc(C(F)(F)F)nc(S(=O)(=O)CCCC(=O)Nc3ccc(F)c(Cl)c3)n2)cc1OC,"Secretin receptor (SCTR, Homo sapiens, UniProt P47872)","cAMP, agonist",,,,EC50,26 µM
COC(=O)C1=C(C)N(Cc2ccc(Br)cc2)C(=S)CC1c1ccc(OC)cc1 (centres unmarked),Saccharomyces cerevisiae,measured: Rlm1-lacZ,,"up to 20 µM, added: calcofluor white",,reporter gene,no effect
C[C@@H](c1ccn(Cc2ccc(F)c(Cl)c2)n1)[C@](O)(Cn1cnnn1)c1ccc(F)cc1F,Candida tropicalis,"growth, broth microdilution",2718,"24 h, 30 °C, ≥50% inhibition",,MIC,< 0.008 µg/mL
CNC1=C([N+](=O)[O-])C2(C(=O)Nc3ccccc32)C2=C(CCCC2=O)O1 (centres unmarked),Streptococcus pneumoniae,,MTCC 655,"250 µg/mL, 24 h",,growth inhibition,29.1%
CC(=O)c1c(O)c(C)c(O)c2c1OC1=CC(=O)/C3=C(/C)N[C@H](C(=O)O)CC1=CC=CC=C[C@@]2(C)C3=O,Candida tropicalis,microbial killing,,,,MFC,25.4 µM
Nc1ccn(C[C@@H](CO)OCP(=O)(O)OCCCS(=O)(=O)CCCCCCCCCCC2CCC2)c(=O)n1,JC polyomavirus,qPCR,"COS-7, MAD-4",,reference: CC50 over EC50,selectivity index,13
COc1ccc(C2OC(=O)c3ccc(-c4ccccc4)c(O)c32)c(OC)c1OC (centres unmarked),Naegleria fowleri,"parasite growth, resazurin",,48 h,,IC50,12.9 µM
CN(C)c1cc(CNCCC(C)(C)C)c(O)c2c1C[C@H]1C[C@H]3[C@H](N(C)C)C(O)=C(C(N)=O)C(=O)[C@@]3(O)C(O)=C1C2=O,Streptococcus pneumoniae,,"ATCC 700905, Tet M ribosome protection",,,MIC,0.25 µg/mL
Cc1ccnc(-c2cn([C@@H]3O[C@H](CO)[C@@H](O)[C@H]3O)c3ncnc(N)c23)n1,Trichomonas vaginalis,resorufin,"G3, metronidazole-sensitive","24 h + 2 h, 2% O2",,EC50,2.8 ± 0.478 µM
COC(=O)c1cccc(-n2nc(C)c3c(C)n(-c4ccc(OC)cc4)nc3c2=O)c1,Zika virus,,"Vero, MR766",,reference: CC50 over EC50,selectivity index,2.3
Cc1ccc(-c2nc3ccc(C)cn3c2CN2CCN(c3ccc(F)cc3)CC2)cc1,Trypanosoma cruzi,,"3T3 host cells, Tulahuen beta-galactosidase",6 days,,EC50,1 µM
CCC1(C)CCN(Cc2cc(N(C)C)c3c(c2O)C(=O)C2=C(O)[C@]4(O)C(=O)C(C(N)=O)=C(O)[C@@H](N(C)C)[C@@H]4C[C@@H]2C3)CC1,Streptococcus pneumoniae,,157E,added: mouse serum,reference: no serum,MIC increase,≥ 2 dilutions
CC[C@H](C)[C@H](NC(=O)[C@H](CCCN)NC(=O)[C@H](CC(N)=O)NC(=O)[C@H](Cc1c[nH]c2ccccc12)NC(=O)[C@H](Cc1ccccc1)NC(=O)[C@H](CCCN)NC(=O)[C@H](CCCNC(=N)N)NC(=O)[C@H](CC(C)C)NC(=O)[C@H](Cc1c[nH]c2ccccc12)NC(=O)[C@H](CCCN)NC(=O)[C@H](CCCNC(=N)N)NC(=O)[C@H](CC(C)C)NC(=O)CNC(C)=O)C(=O)N[C@@H](CCCN)C(=O)N[C@@H](CCCNC(=N)N)C(N)=O,all bacteria tested,,,,,geometric mean MIC,4.42 µM
Cc1ccc2nc(-c3ccccc3)c(CN(C)C)n2c1,Trypanosoma cruzi,,"3T3 host cells, Tulahuen beta-galactosidase",6 days,,EC50,> 20 µM
c1ccc(-c2nc(-c3ccc4ccccc4c3)c[nH]2)cc1,Schistosoma mansoni,,mature male and female worms,"50 µM, 96 h",,worm killing,0%
CN(C)c1cc(CNC2CCCC2)c(O)c2c1C[C@H]1C[C@H]3[C@H](N(C)C)C(O)=C(C(N)=O)C(=O)[C@@]3(O)C(O)=C1C2=O,Streptococcus pneumoniae,"microbial growth, broth dilution",,,,MIC,< 0.06 µg/mL
CC1(C)CC[C@]2(CO)CC[C@]3(C)C(=CC[C@@H]4[C@@]5(C)CCCNC(C)(C)[C@@H]5CC[C@]43C)[C@@H]2C1,Human cytomegalovirus,cytopathic effect,"HFF, AD169",,,EC90,> 1.2 µM
